Results pooled from the literature.
Protocols differ between the studies behind these lines.
HDAC3: Histone deacetylase 3 (HDAC3, Homo sapiens, UniProt O15379)
Sequence of UniProt O15379 (whole entry, looked up): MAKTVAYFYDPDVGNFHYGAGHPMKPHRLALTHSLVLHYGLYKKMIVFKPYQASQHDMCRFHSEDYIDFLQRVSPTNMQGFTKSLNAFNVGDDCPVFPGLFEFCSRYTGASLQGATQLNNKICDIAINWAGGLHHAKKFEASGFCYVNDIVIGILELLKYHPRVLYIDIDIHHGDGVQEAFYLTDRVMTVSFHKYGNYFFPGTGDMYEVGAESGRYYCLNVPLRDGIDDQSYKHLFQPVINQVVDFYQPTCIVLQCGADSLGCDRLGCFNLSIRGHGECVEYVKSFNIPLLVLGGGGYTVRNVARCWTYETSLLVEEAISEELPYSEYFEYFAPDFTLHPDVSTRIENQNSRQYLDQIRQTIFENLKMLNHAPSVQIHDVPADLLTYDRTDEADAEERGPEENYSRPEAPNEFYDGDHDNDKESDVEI
HDAC3 with NCoR2 DAD: Histone deacetylase 3, with NCoR2 DAD (HDAC3, Homo sapiens, UniProt O15379)

With `O=C(CCCCCCC(=O)Nc1ccc(CCF)cc1)NO` the IC50 was 146 nM (HDAC3).
`O=C(NO)c1cncc(OS(=O)(=O)Oc2ccc(-n3ccnc3)cc2)c1` has an IC50 of 1910 nM (HDAC3 with NCoR2 DAD; enzyme activity, inhibitor, fluorogenic; together with: substrate 20 µM).
`CCCC[C@H](NC(=O)[C@H](C)c1c(C)[nH]c2ccc(O)cc12)c1ncc(-c2cc3ccccc3nc2OC)[nH]1` has a Ki of 60 nM (HDAC3; enzyme activity, inhibitor, progress curve fitting).
With `C=CCC[C@@H]1NC(=O)[C@H]2CCCN2C(=O)[C@H](Cc2ccccc2)NC(=O)C(C)(C)NC1=O` the IC50 was greater than 300000 nM (Histone deacetylase 3, with NCoR2 (HDAC3, Homo sapiens, UniProt O15379); enzyme activity).
With `CCCCOc1ccc(CC(=O)NO)cc1` the Kd was greater than 30200 nM (HDAC3; inhibitor, competition pulldown; SW620 and MV4-11 lysate; 1 h).
For `O=C(NO)c1ccc(Cn2cnc3c(Nc4ccc(Cl)cc4)ncnc32)cc1`, the IC50 was 15.1 nM (HDAC3; enzyme activity, inhibitor; together with: Ac-RHKK(Ac)-AMC substrate).
For `O=C(NO)c1cncc(OS(=O)(=O)Oc2ccc(C(F)(F)F)cc2)c1`, the Ki was 905 nM (HDAC3 with NCoR2 DAD; enzyme activity, inhibitor, fluorogenic).
The Kd of `CCCCN(Cc1ccc(C(=O)NO)cc1)C(=O)Nc1ccccc1` is reported as greater than 30200 nM (HDAC3; inhibitor, competition pulldown; SW620 and MV4-11 lysate; 1 h).
The IC50 of `O=C(NO)c1cncc(OS(=O)(=O)Oc2ccc3ccccc3c2)c1` is reported as 1280 nM (HDAC3 with NCoR2 DAD; enzyme activity, inhibitor, fluorogenic; together with: substrate 20 µM).
With `CCCC[C@H](NC(=O)C1CN(C)C1)c1ncc(-c2cc3ccccc3nc2OC)[nH]1` the Ki was 273 nM (HDAC3; enzyme activity, inhibitor, progress curve fitting).

Repeated from above:
The Kd of `CCCCN(Cc1ccc(C(=O)NO)cc1)C(=O)Nc1ccccc1` is reported as greater than 30200 nM (HDAC3; inhibitor, competition pulldown; SW620 and MV4-11 lysate; 1 h).
